Measured values pooled from the literature.
Compare with care: the assays were run in different laboratories. “And” joins repeats or separate records; there may be more than shown. Numbers after ± are the reported error.
Chain of UniProt Q9Y2J8 (whole entry, looked up): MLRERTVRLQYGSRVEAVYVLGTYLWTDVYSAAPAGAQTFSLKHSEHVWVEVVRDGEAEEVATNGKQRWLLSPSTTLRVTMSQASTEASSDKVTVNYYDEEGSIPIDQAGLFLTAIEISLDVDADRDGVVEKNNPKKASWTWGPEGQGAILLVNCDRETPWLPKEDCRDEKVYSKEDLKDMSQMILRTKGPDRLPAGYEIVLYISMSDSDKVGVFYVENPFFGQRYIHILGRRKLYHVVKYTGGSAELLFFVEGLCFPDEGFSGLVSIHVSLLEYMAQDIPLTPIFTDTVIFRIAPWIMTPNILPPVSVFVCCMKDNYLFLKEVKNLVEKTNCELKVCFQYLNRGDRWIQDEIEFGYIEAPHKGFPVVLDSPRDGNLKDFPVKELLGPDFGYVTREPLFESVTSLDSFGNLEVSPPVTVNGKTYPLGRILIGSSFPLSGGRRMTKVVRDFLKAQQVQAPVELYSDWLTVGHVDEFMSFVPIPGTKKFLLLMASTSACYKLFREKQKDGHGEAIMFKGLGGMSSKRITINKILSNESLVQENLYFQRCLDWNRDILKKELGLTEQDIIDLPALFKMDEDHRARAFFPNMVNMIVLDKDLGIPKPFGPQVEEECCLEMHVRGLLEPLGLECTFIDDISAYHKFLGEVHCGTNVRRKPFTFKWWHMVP
Chain of UniProt P54760 (whole entry, looked up): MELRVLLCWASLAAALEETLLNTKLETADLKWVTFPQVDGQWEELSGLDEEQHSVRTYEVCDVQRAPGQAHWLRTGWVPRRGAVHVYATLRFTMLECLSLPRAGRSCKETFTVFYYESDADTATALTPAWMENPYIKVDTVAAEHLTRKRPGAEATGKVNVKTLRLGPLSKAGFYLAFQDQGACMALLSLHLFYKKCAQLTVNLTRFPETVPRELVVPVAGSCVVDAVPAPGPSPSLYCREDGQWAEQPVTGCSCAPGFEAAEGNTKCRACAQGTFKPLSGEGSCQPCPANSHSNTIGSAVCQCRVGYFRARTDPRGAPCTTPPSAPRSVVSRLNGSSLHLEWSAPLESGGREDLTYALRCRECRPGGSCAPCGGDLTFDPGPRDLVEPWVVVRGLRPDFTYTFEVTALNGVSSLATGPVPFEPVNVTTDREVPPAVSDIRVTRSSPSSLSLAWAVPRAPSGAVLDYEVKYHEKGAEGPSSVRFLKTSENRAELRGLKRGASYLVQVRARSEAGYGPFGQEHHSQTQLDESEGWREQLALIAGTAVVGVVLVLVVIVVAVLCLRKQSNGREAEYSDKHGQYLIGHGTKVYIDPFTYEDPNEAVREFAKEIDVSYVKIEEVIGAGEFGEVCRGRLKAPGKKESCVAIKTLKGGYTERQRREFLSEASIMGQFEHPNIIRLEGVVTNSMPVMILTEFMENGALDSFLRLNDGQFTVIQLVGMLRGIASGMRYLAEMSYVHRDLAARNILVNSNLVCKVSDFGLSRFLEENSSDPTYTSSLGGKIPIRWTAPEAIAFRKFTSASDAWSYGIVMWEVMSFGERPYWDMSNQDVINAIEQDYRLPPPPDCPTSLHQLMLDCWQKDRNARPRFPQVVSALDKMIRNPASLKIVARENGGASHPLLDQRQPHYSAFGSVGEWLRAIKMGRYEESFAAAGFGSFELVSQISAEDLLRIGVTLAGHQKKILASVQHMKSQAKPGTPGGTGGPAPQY
Chain of UniProt Q96JP5 (whole entry, looked up): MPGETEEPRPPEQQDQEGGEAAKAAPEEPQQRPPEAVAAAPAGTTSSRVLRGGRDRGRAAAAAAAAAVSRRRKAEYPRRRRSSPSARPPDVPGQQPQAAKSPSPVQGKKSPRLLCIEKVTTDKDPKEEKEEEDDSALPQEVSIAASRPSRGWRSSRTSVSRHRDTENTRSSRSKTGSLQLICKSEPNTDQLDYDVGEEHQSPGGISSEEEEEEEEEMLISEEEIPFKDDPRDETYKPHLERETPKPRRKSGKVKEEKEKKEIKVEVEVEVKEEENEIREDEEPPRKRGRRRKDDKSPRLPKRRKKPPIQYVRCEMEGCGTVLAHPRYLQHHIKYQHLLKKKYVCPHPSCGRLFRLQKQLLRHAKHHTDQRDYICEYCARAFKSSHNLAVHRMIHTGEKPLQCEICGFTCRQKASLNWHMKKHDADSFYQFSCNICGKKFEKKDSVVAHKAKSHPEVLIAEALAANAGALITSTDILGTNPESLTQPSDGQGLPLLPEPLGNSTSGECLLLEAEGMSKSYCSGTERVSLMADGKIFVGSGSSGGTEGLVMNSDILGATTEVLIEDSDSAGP
Chain of UniProt P15823 (whole entry, looked up): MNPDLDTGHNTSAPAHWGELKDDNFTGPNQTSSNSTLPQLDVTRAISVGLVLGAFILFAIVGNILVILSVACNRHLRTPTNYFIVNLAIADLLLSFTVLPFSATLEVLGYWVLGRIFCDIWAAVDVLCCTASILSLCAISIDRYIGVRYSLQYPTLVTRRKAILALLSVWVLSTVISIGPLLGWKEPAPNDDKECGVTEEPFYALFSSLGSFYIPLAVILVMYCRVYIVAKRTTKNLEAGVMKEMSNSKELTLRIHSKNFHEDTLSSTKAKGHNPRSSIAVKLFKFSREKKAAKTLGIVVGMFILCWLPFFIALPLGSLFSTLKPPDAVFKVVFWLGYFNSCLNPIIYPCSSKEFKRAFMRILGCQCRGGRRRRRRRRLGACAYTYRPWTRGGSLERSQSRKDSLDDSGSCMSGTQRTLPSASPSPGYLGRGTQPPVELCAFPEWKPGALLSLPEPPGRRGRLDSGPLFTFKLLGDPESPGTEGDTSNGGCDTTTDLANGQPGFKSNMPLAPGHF
Chain of UniProt Q13523 (whole entry, looked up): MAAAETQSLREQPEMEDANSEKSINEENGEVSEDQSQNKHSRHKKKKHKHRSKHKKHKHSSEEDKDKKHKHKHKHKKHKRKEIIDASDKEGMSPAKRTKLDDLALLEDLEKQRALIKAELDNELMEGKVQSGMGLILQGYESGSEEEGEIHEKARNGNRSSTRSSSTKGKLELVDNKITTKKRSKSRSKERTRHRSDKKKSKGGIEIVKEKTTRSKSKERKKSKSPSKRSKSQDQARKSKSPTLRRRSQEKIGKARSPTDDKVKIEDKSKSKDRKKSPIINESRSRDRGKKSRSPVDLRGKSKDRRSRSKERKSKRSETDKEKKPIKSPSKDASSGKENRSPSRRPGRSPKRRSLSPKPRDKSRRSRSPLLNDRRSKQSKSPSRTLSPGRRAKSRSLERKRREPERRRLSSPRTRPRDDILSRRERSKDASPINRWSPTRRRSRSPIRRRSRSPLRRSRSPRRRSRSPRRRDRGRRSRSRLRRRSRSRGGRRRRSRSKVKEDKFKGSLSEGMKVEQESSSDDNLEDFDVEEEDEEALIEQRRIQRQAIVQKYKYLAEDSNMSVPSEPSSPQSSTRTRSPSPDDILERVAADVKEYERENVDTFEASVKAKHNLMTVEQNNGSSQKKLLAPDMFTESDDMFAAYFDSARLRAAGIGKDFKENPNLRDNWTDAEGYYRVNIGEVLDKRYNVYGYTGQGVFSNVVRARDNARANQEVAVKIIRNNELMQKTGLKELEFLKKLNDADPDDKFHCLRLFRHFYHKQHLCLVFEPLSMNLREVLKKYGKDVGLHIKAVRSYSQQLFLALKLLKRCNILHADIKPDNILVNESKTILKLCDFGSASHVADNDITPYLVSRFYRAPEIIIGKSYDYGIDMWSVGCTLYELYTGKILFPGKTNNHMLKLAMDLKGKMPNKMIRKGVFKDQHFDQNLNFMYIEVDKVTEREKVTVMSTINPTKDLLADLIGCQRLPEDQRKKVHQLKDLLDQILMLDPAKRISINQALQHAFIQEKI
Chain of UniProt P36896 (whole entry, looked up): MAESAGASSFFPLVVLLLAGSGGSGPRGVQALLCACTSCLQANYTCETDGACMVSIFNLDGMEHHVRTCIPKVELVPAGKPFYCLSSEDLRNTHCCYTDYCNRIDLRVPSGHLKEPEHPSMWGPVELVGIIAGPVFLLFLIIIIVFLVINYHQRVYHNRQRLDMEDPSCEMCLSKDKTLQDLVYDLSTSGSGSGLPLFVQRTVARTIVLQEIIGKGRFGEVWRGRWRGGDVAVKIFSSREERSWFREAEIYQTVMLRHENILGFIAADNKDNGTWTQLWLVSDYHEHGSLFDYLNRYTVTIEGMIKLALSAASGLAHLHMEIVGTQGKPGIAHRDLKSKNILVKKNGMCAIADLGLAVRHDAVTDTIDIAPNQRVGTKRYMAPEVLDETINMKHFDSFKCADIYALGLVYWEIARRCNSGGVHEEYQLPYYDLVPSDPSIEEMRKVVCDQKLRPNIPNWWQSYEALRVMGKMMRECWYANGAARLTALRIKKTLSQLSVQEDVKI
Chain of UniProt Q96SW2 (whole entry, looked up): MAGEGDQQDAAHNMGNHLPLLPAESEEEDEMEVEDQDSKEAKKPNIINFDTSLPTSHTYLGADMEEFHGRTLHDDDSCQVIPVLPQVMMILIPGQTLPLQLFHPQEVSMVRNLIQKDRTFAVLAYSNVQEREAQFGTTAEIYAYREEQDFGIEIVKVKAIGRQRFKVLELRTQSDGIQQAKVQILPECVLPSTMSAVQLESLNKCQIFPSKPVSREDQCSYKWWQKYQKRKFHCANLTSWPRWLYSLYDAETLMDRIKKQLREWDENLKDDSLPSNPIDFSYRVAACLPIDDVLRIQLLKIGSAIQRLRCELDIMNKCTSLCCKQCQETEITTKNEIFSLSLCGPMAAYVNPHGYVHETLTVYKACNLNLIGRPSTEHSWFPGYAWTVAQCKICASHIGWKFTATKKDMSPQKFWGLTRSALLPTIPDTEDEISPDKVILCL
Chain of UniProt P10144 (whole entry, looked up): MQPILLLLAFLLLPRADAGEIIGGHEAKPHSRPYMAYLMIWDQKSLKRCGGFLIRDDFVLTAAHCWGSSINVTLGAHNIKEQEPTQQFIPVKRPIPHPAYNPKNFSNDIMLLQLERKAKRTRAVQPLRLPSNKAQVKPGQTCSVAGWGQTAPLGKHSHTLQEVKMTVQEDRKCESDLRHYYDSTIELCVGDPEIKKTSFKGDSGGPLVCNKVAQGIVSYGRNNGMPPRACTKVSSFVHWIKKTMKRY

SMILES	target or system	assay	system	conditions	scale	measurement	result
CCOC(=O)[C@@H]1Cc2c(cc([N+](=O)[O-])cc2[N+](=O)[O-])[C@H](O)[C@]12C(=O)Nc1ccc(Br)cc12	Activin receptor type-1B (ACVR1B, Homo sapiens, UniProt P36896)	binding, competition with immobilised ligand		0.1 µM		remaining binding	89%
CC(C)(C)C(=O)OCOP(=O)(OCOC(=O)C(C)(C)C)C1CCCN(O)C1=O (centres unmarked)	MOLT-4					GI50	0.431 µM
COc1c(N2CC3CCCNC3C2)c(F)cc2c(=O)c(C(=O)OCc3ccc([N+](=O)[O-])s3)cn(C3CC3)c12 (centres unmarked)	Oxygen-insensitive NAD(P)H nitroreductase (nfsB, Escherichia coli K-12, UniProt P38489)	substrate		with: NADH 100 µM		initial rate	0.77 ± 0.016 µM/min
CN(C)[C@H]1C[C@@]23CC[C@@]4(O2)C(=CC[C@]2(C)[C@@H](c5ccc6ccncc6c5)CC[C@H]24)C=C3[C@@H](O)[C@@H]1O	Serine/threonine-protein kinase PRP4 homolog (PRPF4B, Homo sapiens, UniProt Q13523)	ATP probe labelling, inhibitor, KiNativ profiling		1 µM		inhibition	4.9%
N[C@@H](Cc1ccccc1)P(=O)(O)O	PAL1 (Petroselinum crispum, UniProt P24481)	L-Phe deamination, inhibitor, UV steady-state kinetics		200 µM, with: L-Phe 5 mM		reaction rate reduction	35%
N[C@H](C(=O)N1CCCC1)C1CCN(c2nccc3c(-c4ncc(Cl)cc4Cl)cccc23)CC1	Protein-arginine deiminase type-2 (PADI2, Homo sapiens, UniProt Q9Y2J8)	thermal shift		0.00953 µM		melting temperature	58.1 °C and 58.7 °C
COc1ccccc1-c1n[nH]c2nc(NC3CCN(C(=O)Cc4ccc(F)cc4F)CC3)ncc12		bead binding, competition bead pull-down, refers to: LINJ.35.1070	Leishmania donovani axenic amastigote extract	10 µM	baseline: vehicle	relative abundance	0.86
CC(C)[C@H]1NC(=O)C[C@H]2/C=C/CCSSC[C@@H](NC1=O)C(=O)N[C@H](Cc1cccc3ccccc13)C(=O)NCC(=O)O2	Ephrin type-B receptor 4 (EPHB4, Homo sapiens, UniProt P54760)	enzyme activity, inhibitor		10 µM		inhibition	-0.3%
CN(C)CCCSC(=S)N1CCN(C(=O)/C=C/c2coc3ccccc3c2=O)CC1	Nucleoprotein (N, Tomato spotted wilt virus, UniProt P25999, R94A)	binding, microscale thermophoresis		0.1221 µM	dose series	MST response	842 a.u.
Cc1ccc(NC(=O)CCc2cccc(NC3=CC(=O)N(C4CCC(=O)NC4=O)C3=O)c2)cc1Cl (centres unmarked)	E3 ubiquitin-protein ligase ZFP91/CRBN (Homo sapiens, UniProt Q96JP5+Q96SW2)	degrader, quantitative proteomics, refers to: protein abundance	Jurkat	1 µM, 4 h	baseline: DMSO	log2 fold change	-0.387
CC[C@@H](C)[C@@H]1CN([C@H](Cc2ccc3ccccc3c2)CN2CCC[C@H]2CN2CCNC[C@@H]2Cc2ccc3ccccc3c2)CCN1CCCC1CCCC1	Delta-type opioid receptor (Oprd1, Rattus norvegicus, UniProt P33533)	radioligand binding	rat brain membranes	500 nM, pH 7.5, 25 °C, with: 2 nM [3H]DPDPE		remaining binding	85.6%
CS(C)(=O)=Nc1ccc(-c2ccc(-c3nc4cc(O[C@@H]5CO[C@H]6[C@@H]5OC[C@H]6O)[nH]c4cc3F)cc2)cc1	Fibroblast growth factor receptor 1 (FGFR1, Homo sapiens, UniProt P11362, V561M)	enzyme activity, inhibitor		10 µM		inhibition	4%
O=C1NC2(CC2)COc2ncc(F)cc2[C@H]2COCCN2c2ccn3ncc1c3n2			Sprague-Dawley rat, male, serum	oral, 2.5 mg/kg/day, 4 weeks daily, end of recovery period		potassium	4.66 ± 0.09 mmol/L
C[C@H](NCc1ccc(-c2ccc(C(F)(F)F)cc2)cc1)C(N)=O	Alpha-1B adrenergic receptor (Adra1b, Rattus norvegicus, UniProt P15823)	radioligand binding, SafetyScreen panel		1 µM, species rat, with: 0.25 nM [3H]Prazosin		inhibition	2%
Cc1nc2ccc(-c3ccc(OC(F)(F)F)cc3)cc2c(O)c1C#N	Dihydroorotate dehydrogenase (quinone), mitochondrial (PFF0160c, Plasmodium falciparum, UniProt Q08210, E182D)	enzyme activity, DCIP colorimetric			baseline: E182D mutant over wild type	IC50 ratio	0.7
CC[C@H](C)[C@H](NC(C)=O)C(=O)N[C@@H](CCC(=O)O)C(=O)N1CCC[C@H]1C(=O)NC(CS(=O)(=O)O)P(=O)(Oc1ccccc1)Oc1ccccc1 (some centres unmarked)	Granzyme B (GZMB, Homo sapiens, UniProt P10144)	enzyme activity, inhibitor, FRET				kinact/KI	419000 M⁻¹ s⁻¹
O=C1NC(=O)c2c1c1cc(F)c[n+]3c1c1c2c2cc(O)ccc2[n]1[Ru-4]312([N]=C=S)[S+]3CC[S+]1CC[S+]2CC3 (centres unmarked)	Mast/stem cell growth factor receptor Kit (KIT, Homo sapiens, UniProt P10721, D816H)	enzyme activity		100 nM, human enzyme, with: 10 µM ATP	baseline: untreated	remaining activity	5%

Some of these lines once more:
SMILES	target or system	assay	system	conditions	scale	measurement	result
COc1c(N2CC3CCCNC3C2)c(F)cc2c(=O)c(C(=O)OCc3ccc([N+](=O)[O-])s3)cn(C3CC3)c12 (centres unmarked)	Oxygen-insensitive NAD(P)H nitroreductase (nfsB, Escherichia coli K-12, UniProt P38489)	substrate		with: NADH 100 µM		initial rate	0.77 ± 0.016 µM/min
CN(C)[C@H]1C[C@@]23CC[C@@]4(O2)C(=CC[C@]2(C)[C@@H](c5ccc6ccncc6c5)CC[C@H]24)C=C3[C@@H](O)[C@@H]1O	Serine/threonine-protein kinase PRP4 homolog (PRPF4B, Homo sapiens, UniProt Q13523)	ATP probe labelling, inhibitor, KiNativ profiling		1 µM		inhibition	4.9%
N[C@@H](Cc1ccccc1)P(=O)(O)O	PAL1 (Petroselinum crispum, UniProt P24481)	L-Phe deamination, inhibitor, UV steady-state kinetics		200 µM, with: L-Phe 5 mM		reaction rate reduction	35%
